Results from different studies.
A part holds a random share of what one study measured.

Study 1
Target: Protein C-ets-1 (ETS1, Homo sapiens, UniProt P14921, residues 1-441, K379A, full length assumed)
Technique: protein-binding microarray
Form: double-stranded DNA, one strand shown
Sample: in vitro
Concentration: not given
Setting: k-mer, scored over probes, only values ≥0.25
Direction: higher = stronger binding
Measurement: E-score
Residues (chain): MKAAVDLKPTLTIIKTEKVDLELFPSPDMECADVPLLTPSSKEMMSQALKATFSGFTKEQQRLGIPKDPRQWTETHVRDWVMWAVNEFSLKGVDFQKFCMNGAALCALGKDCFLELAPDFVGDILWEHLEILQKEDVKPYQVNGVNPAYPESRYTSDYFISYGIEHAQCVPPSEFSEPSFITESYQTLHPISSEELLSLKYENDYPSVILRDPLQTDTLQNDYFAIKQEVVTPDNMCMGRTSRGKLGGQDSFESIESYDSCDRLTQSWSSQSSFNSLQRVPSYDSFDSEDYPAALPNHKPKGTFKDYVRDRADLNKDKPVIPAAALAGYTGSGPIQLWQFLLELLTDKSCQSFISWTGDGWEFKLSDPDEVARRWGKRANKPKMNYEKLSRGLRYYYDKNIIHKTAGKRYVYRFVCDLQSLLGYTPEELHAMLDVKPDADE
Sequence = GGTAAAGA; value = 0.251
Sequence = ACATTGTC; value = 0.268
Sequence = CGTTATTA; value = 0.307
Sequence = CTACCGGC; value = 0.305
Sequence = AATACATG; value = 0.313
Sequence = TGGTAAAA; value = 0.273
Sequence = CGGAAGTA; value = 0.329
Sequence = TGAATTCA; value = 0.312
Sequence = TATATAAA; value = 0.264
Sequence = ATCTTGTA; value = 0.252
Sequence = CCCGGGTA; value = 0.283
Sequence = AAACCCGG; value = 0.284
Sequence = CCGGCATC; value = 0.307
Sequence = CCCCGGCC; value = 0.391
Sequence = TATAATAA; value = 0.292
Sequence = CCCGCCGG; value = 0.389
Sequence = GGCCGGTA; value = 0.328
Sequence = CCGGTCGA; value = 0.381
Sequence = CATATACA; value = 0.294
Sequence = CGACCGGA; value = 0.407
Sequence = CGGGAACA; value = 0.268
Sequence = AACTCACA; value = 0.277
Sequence = CCCGGTTC; value = 0.352
Sequence = AACGACAC; value = 0.293
Sequence = AACCGGTT; value = 0.459

Study 2
Target: Phosphate system positive regulatory protein PHO4, full length, GST-tagged (PHO4, Saccharomyces cerevisiae, UniProt P07270, residues 1-312)
Technique: competition protein-binding microarray
Form: double-stranded DNA, one strand shown
Sample: in vitro
Concentration: 2 µM
Setting: whole 60-bp probe, lowest competitor level
With: Cbf1 competitor, 0.05 µM
Direction: higher = stronger binding
Measurement: fluorescence intensity
All sequences stand within: … GTCTTGATTCGCTTGACGCTGCTG
Residues (chain): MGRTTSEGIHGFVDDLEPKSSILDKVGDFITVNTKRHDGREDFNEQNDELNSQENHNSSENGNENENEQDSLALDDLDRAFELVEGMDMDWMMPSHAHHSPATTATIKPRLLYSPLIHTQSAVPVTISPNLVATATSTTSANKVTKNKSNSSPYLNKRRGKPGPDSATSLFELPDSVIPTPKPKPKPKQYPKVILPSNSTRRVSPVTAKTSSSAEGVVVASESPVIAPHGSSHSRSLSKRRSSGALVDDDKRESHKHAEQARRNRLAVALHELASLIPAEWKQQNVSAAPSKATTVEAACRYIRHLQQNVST
Sequence = TTCTTCCAATCGAGTCACGTCGCGTCCTCGGAGGCA; value = 4670 a.u.
Sequence = CCGCTGTTTTATTAGCACGTGACGGATTGAAACGAC; value = 17500 a.u.
Sequence = CGGGCTTGTCTCAGGCTCGTGTGGACCGCACTGTAA; value = 6930 a.u.
Sequence = AAATTACTAAGTTTTCACGTGGTATACCCCGTATGA; value = 13400 a.u.
Sequence = AGGATTTTCAACCATCATGTGACAGTCGAAGAACGC; value = 7040 a.u.
Sequence = GTCTTGTCTCATTTTCACGTGGCATTCCCCACTTCA; value = 13700 a.u.
Sequence = CTTCTGTAAATTTTTCACGTGACATGAAGCGCCCCG; value = 10200 a.u.
Sequence = AAAGCGGTAATTTGGGCCGTGGGTGCAGATATCTAT; value = 6150 a.u.
Sequence = TTGTTTCTAGACCACCACGTGTGGATTGCAAAACAA; value = 15700 a.u.
Sequence = TACCCGGATACTTATCATGTTATGGTCTTTAATCAA; value = 4320 a.u.
Sequence = CCCATAGATTGCGGGCACATGGCGCAGTTGGTAGCG; value = 12600 a.u.
Sequence = CGTCCTAGTGATTGGCAAGTGGGTGCCATGAGGAAG; value = 6810 a.u.
Sequence = TTCAGGGCTGCTCACAACGTGATGGATTTGAATTGA; value = 11700 a.u.
Sequence = CGTCCTAGTGATTGCTTAGTGGGTGCCATGAGGAAG; value = 6290 a.u.
Sequence = CATGCTGTAGCTATCGTCGTGATGGCTTTTACTGGC; value = 5110 a.u.
Sequence = CAATGCTTTCCCGGCCACGTCGACATGGAACATCTT; value = 4910 a.u.

Study 3
Target: RNA binding protein fox-1 homolog 2, RRM domain, GST-SBP tag (RBFOX2, Homo sapiens, UniProt O43251-10, residues 100-194)
Technique: RNA Bind-n-Seq
Form: RNA
Sample: in vitro
Concentration: 365 nM
Setting: natural RNA segment, single round, ends assumed
Baseline: no-protein control
Direction: higher = stronger binding
Measurement: RBNS enrichment (R)
All sequences stand within: GGGAGUUCUACAGUCCGACGAUC … UGGAAUUCUCGGGUGCCAA
Target sequence (chain): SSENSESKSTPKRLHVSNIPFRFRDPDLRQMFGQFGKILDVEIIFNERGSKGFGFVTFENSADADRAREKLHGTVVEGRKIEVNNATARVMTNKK
Sequence = CACGGCUGCGAGUAUUGUUAUAUCUAAUCCUAUUUUAAAAGAUUUUUGGUAAUAUGAAGCUUGAAUACUGGUAACAGUGAUGCAAUAUACGCAAGCUGCACAACCUGUAU; value = 0.324
Sequence = UUGGAAGUGAGCAGGACAAAGACCAUGUUUUAGAGAUGUGAUAACUUCCUAGGACUAAGUUUACUAAACUACACUGAAGCUAUUAUACUUUCUAGAUCAGAAAAAUUAUA; value = 0.338
Sequence = CCACCCGUCCAGUACCACCAAAGUAGUUCUCUGUCAUGUGUGUUCCCUGCCUGCACAAACCUACAUGUACAUACCAUGGAUUAGAGACACUUGCAGGACUGAAAGGCUGC; value = 0.988
Sequence = AAUCCAAGAGCUAUAAUUUUUAAAAAAAAAAAUCUUUUAUUUUAAUACAUUGUAGGAAAUCUUCAUAAUUGGAGAAAGUUCUGCAGCAUGGCUUUUUACGUCUGUAAAUA; value = 0.569
Sequence = UAAUUUCUCAUUUAUUUGUCUAGAAAAUCCAUAAUGAUAUAGGACAUUUAUACCGAGUGAGAUCAUUAACAAUGAAAUUGAGAGAUUAGAGCAUCCUCACUGGGUGAUGG; value = 0.444
Sequence = UAGGAUCUCACUGCCUCCCUCUCUGGCCUUCCUGUCCCCUCCCUUCAGCUAUGACAGCUGGUGUGGAGUAGAAGGGCAACUAGUUCUGUUAUUUAUUGAACAUUUGGGGU; value = 0.26
Sequence = CUGUAUUGGCUCAGUGCUUUCAGGAGUGAGUGUGUGAGUGAGUGUGUGAGUGUGUGUGGGCGUGAGCGGGUGUGUACGUACCAAUAAACAUCCUGGUUUUAAGACAAUGU; value = 1.21
Sequence = UGAUUUGAAAACUAAGUUCAUGUUAUAGAGUGGUUUACUGUACUAUACUUUCUCUUUUUUAUAUGAUGUCUAACAAAAAAAAAAUACAGCUCCAACAUUUUGAUUCCUGU; value = 1.23

Study 4
Target: PABPC1L2, full length, GST fusion (mouse, UniProt A0ABA7IW68)
Technique: RNAcompete
Form: RNA
Sample: in vitro
Concentration: 20 nM
Setting: 7-mer, probes averaged, single round
Baseline: mean of 7-mers
Direction: higher = stronger binding
Measurement: 7-mer Z-score
Residues (chain): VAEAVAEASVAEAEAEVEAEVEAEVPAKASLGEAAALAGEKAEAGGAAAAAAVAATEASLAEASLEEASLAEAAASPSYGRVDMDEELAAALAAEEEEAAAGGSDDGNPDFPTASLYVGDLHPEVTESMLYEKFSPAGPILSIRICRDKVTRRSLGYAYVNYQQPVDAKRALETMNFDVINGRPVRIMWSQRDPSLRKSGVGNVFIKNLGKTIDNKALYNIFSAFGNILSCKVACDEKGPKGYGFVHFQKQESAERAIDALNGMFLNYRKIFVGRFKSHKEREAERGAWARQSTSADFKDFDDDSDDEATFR
Sequence = CAUCCAU; value = -0.282
Sequence = GUUCGUG; value = -0.44
Sequence = AGUUACU; value = -0.199
Sequence = CCGAACA; value = -0.104
Sequence = GGUACAC; value = -0.0518
Sequence = UUGGGGU; value = -0.05
Sequence = GAUAGUA; value = -0.0971
Sequence = AUCUGUC; value = -0.331
Sequence = UGAUCCU; value = -0.248
Sequence = GGAUCGG; value = 0.109
Sequence = AGGUGGA; value = 0.289
Sequence = CGAACGG; value = -0.182
Sequence = ACCGCAU; value = -0.0808
Sequence = AUACUCU; value = -0.342
Sequence = ACCGUGG; value = 0.204
Sequence = UGAGUGA; value = -0.0627
Sequence = UAGAUAC; value = -0.141
Sequence = GGAUGGU; value = 0.173
Sequence = ACUUCAC; value = -0.191
Sequence = GCCCAUC; value = -0.224

Study 5
Target: Histone acetyltransferase KAT6A, winged helix 2, GST fusion (KAT6A, Homo sapiens, UniProt Q92794, residues 85-181)
Technique: protein binding microarray
Form: double-stranded DNA, one strand shown
Sample: in vitro
Concentration: not given
Setting: 8-mer, flanks averaged, mean of 2 arrays, mostly near background
Baseline: not given
Direction: higher = stronger binding
Measurement: E-score
Construct (chain): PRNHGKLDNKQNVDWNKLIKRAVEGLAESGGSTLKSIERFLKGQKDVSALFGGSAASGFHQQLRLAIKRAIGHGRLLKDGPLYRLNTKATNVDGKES
Sequence = AAATACTA; value = 0.00907
Sequence = AGTATACG; value = -0.0461
Sequence = AGTCTGGG; value = -0.0533
Sequence = ACGCCTAC; value = -0.118
Sequence = ACCAAATA; value = 0.111
Sequence = ATGTCGCA; value = 0.0559
Sequence = GCATACAC; value = 0.0676
Sequence = CCATGACC; value = -0.0504
Sequence = ATCTGGAA; value = -0.0571
Sequence = ACGTATCG; value = -0.107
Sequence = CACTTTCG; value = -0.126
Sequence = AGGCGTGG; value = -0.182
Sequence = CTTCCTGC; value = -0.0722
Sequence = GCTTCAAC; value = -0.13
Sequence = AACGAGCG; value = -0.0165
Sequence = CCTCGACG; value = 0.0327
Sequence = ATGAGGCA; value = 0.0144

Repeated from above (study 3):
Sequence = UUGGAAGUGAGCAGGACAAAGACCAUGUUUUAGAGAUGUGAUAACUUCCUAGGACUAAGUUUACUAAACUACACUGAAGCUAUUAUACUUUCUAGAUCAGAAAAAUUAUA; value = 0.338
Sequence = CCACCCGUCCAGUACCACCAAAGUAGUUCUCUGUCAUGUGUGUUCCCUGCCUGCACAAACCUACAUGUACAUACCAUGGAUUAGAGACACUUGCAGGACUGAAAGGCUGC; value = 0.988
Sequence = CACGGCUGCGAGUAUUGUUAUAUCUAAUCCUAUUUUAAAAGAUUUUUGGUAAUAUGAAGCUUGAAUACUGGUAACAGUGAUGCAAUAUACGCAAGCUGCACAACCUGUAU; value = 0.324
Sequence = CUGUAUUGGCUCAGUGCUUUCAGGAGUGAGUGUGUGAGUGAGUGUGUGAGUGUGUGUGGGCGUGAGCGGGUGUGUACGUACCAAUAAACAUCCUGGUUUUAAGACAAUGU; value = 1.21
Sequence = AAUCCAAGAGCUAUAAUUUUUAAAAAAAAAAAUCUUUUAUUUUAAUACAUUGUAGGAAAUCUUCAUAAUUGGAGAAAGUUCUGCAGCAUGGCUUUUUACGUCUGUAAAUA; value = 0.569
Sequence = UGAUUUGAAAACUAAGUUCAUGUUAUAGAGUGGUUUACUGUACUAUACUUUCUCUUUUUUAUAUGAUGUCUAACAAAAAAAAAAUACAGCUCCAACAUUUUGAUUCCUGU; value = 1.23
Sequence = UAAUUUCUCAUUUAUUUGUCUAGAAAAUCCAUAAUGAUAUAGGACAUUUAUACCGAGUGAGAUCAUUAACAAUGAAAUUGAGAGAUUAGAGCAUCCUCACUGGGUGAUGG; value = 0.444
Sequence = UAGGAUCUCACUGCCUCCCUCUCUGGCCUUCCUGUCCCCUCCCUUCAGCUAUGACAGCUGGUGUGGAGUAGAAGGGCAACUAGUUCUGUUAUUUAUUGAACAUUUGGGGU; value = 0.26
